# Measured values pooled from the literature.
# Each line is one published result; not all experiments were run side by side. Values joined by “and” are separate records of one study, mostly repeats; a detail may differ. ± marks the error that the study gave.
# AURKB: Aurora kinase B (AURKB, Homo sapiens, UniProt Q96GD4)
# Chain of UniProt Q96GD4 (whole entry, looked up): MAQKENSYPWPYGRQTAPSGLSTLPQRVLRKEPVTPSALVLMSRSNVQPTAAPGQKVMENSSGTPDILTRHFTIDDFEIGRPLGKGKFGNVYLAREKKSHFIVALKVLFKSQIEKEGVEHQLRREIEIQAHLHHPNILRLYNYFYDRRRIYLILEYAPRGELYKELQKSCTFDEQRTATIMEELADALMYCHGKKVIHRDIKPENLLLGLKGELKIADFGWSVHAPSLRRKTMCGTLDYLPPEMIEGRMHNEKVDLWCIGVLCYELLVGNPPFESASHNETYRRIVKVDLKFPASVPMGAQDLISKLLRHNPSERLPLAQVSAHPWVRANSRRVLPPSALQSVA
# PIKFYVE: 1-phosphatidylinositol 3-phosphate 5-kinase (PIKFYVE, Homo sapiens, UniProt Q9Y2I7)
# SLC6A6 Y138A: Sodium- and chloride-dependent taurine transporter (SLC6A6, Homo sapiens, UniProt P31641, Y138A)
# Histone acetyltransferase type B catalytic subunit: Histone acetyltransferase type B catalytic subunit (Homo sapiens, UniProt O14929)
# Chain of UniProt O14929 (whole entry, looked up): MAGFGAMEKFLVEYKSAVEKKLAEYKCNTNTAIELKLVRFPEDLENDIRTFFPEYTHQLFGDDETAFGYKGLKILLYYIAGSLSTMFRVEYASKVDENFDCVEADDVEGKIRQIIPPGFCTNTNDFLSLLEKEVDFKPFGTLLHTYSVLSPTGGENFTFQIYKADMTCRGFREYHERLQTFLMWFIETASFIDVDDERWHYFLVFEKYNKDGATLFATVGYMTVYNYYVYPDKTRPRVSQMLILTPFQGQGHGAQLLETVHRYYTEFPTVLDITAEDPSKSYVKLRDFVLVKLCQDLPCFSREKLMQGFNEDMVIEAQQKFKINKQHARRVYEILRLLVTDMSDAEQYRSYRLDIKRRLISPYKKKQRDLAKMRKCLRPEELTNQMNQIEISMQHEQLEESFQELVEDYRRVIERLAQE
# HTR2A: 5-hydroxytryptamine receptor 2A (HTR2A, Homo sapiens, UniProt P28223)
# TOP2A: DNA topoisomerase 2-alpha (TOP2A, Homo sapiens, UniProt P11388)
# Chain of UniProt Q08426 (whole entry, looked up): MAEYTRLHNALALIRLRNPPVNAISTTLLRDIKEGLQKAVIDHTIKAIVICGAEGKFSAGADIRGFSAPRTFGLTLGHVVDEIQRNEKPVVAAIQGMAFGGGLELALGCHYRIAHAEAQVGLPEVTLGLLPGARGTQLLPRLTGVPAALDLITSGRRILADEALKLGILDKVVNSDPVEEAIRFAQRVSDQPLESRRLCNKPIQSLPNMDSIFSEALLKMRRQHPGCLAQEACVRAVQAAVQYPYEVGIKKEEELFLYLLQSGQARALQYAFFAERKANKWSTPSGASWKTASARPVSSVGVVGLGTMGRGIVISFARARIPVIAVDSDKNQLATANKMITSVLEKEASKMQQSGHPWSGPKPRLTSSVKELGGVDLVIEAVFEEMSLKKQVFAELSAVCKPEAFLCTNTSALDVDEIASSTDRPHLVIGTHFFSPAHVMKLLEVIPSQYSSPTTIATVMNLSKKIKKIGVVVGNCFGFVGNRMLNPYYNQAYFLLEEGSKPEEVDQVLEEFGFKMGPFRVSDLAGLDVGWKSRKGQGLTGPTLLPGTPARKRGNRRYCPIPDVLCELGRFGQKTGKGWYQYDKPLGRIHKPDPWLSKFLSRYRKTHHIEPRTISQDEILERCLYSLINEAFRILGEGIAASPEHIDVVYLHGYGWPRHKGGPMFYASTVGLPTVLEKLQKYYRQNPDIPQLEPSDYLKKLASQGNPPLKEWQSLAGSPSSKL
# Chain of UniProt Q16774 (whole entry, looked up): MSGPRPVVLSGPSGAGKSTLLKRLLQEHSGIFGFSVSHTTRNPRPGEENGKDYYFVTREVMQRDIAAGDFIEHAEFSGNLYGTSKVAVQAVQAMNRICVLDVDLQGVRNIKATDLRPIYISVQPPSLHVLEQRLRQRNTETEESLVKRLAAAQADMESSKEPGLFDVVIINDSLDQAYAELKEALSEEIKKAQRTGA
# Chain of UniProt O76090 (whole entry, unmodified, looked up): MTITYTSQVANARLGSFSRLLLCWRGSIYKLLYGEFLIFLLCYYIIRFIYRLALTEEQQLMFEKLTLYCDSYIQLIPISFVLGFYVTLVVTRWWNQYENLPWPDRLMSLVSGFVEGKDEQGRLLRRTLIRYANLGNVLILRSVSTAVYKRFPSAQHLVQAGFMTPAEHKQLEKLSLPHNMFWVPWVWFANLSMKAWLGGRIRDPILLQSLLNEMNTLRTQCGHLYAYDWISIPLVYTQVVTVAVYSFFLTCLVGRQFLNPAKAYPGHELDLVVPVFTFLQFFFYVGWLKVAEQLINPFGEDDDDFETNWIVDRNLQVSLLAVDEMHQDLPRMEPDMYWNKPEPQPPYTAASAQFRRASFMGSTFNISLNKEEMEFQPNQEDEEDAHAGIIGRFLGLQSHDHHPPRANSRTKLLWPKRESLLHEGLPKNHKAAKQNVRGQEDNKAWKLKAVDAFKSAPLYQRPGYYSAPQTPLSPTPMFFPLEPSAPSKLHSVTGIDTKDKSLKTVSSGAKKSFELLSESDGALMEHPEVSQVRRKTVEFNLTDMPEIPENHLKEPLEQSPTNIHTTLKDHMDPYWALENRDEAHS
# Chain of UniProt P05164 (whole entry, looked up): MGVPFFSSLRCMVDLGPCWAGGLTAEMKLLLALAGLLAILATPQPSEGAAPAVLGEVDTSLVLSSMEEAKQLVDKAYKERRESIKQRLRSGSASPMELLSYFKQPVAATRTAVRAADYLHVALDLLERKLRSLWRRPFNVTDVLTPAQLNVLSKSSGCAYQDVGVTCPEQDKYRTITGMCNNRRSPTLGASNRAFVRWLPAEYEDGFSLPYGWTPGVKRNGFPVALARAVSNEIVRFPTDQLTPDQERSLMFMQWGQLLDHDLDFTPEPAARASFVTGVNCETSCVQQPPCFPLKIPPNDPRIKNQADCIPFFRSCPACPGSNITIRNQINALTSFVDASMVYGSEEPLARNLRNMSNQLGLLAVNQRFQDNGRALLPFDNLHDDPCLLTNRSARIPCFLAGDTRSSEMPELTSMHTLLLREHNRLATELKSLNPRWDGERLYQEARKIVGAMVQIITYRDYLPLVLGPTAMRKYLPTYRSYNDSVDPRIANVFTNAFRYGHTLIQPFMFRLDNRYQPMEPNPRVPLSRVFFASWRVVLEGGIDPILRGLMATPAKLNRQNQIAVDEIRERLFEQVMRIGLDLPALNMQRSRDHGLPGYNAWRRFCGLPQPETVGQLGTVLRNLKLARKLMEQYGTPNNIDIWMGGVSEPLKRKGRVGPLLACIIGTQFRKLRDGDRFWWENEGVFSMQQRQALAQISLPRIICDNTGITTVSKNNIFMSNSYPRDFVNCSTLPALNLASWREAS
# Chain of UniProt P22314 (whole entry, looked up): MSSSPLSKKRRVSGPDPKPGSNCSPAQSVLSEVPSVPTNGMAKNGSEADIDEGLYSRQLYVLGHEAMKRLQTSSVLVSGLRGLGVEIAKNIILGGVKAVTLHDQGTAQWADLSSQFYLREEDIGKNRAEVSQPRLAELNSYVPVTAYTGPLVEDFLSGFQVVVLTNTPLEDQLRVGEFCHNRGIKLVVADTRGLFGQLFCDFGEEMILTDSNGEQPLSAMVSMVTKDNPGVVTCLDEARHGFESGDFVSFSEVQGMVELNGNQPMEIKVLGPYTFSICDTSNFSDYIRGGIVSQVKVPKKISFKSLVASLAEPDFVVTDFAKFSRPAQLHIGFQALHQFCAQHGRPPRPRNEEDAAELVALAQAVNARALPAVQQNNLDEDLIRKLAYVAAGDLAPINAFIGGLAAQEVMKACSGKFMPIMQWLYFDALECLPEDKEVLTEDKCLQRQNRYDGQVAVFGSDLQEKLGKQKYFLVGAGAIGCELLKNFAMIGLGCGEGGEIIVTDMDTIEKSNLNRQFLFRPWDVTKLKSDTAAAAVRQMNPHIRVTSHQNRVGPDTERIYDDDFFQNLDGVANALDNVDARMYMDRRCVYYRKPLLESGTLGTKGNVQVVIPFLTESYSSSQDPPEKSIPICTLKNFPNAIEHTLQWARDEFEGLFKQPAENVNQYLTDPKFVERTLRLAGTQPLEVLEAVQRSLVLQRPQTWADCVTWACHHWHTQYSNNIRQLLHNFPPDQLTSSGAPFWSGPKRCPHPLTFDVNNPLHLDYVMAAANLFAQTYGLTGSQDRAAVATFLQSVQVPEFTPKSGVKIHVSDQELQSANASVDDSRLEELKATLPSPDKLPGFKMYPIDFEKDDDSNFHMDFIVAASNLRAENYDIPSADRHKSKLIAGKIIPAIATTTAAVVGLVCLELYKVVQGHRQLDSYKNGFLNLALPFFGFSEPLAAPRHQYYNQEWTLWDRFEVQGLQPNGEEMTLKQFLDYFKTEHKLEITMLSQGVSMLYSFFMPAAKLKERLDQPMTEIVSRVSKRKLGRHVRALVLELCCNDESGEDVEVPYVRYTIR
# Chain of UniProt Q62351 (whole entry, looked up): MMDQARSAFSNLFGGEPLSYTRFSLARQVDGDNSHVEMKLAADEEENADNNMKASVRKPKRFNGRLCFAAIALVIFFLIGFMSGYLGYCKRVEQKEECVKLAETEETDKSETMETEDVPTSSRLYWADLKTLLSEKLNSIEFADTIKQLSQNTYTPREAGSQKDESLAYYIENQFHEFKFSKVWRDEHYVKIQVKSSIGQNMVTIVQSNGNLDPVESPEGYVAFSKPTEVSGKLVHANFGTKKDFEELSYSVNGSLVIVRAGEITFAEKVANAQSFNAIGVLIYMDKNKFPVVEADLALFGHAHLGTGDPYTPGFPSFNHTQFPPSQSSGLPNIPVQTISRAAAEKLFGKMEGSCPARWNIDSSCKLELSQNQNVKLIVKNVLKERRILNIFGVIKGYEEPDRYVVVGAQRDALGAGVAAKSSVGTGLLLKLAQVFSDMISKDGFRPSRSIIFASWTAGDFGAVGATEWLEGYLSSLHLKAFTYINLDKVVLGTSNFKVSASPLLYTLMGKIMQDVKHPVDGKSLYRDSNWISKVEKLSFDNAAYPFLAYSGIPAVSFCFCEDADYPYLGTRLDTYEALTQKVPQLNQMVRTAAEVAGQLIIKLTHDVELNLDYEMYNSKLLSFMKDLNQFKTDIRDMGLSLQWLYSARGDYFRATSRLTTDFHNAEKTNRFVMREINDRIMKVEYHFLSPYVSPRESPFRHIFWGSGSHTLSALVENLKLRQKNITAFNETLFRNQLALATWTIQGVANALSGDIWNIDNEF
# Chain of UniProt P00441 (whole entry, unmodified, looked up): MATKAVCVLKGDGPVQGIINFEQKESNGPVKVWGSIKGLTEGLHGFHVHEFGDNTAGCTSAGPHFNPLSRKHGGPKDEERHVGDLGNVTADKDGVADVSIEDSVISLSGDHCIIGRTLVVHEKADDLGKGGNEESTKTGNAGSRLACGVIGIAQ
SMILES,target,assay,system,setting,how to read,endpoint,value
CC(=O)OCC[N+](C)(C)C,"CHRNB4/CHRNA6 (Homo sapiens, UniProt P30926+Q15825, E185F)",two-electrode voltage clamp,Xenopus oocytes,α6β4 E155F mutant,baseline: wild type,current,decreased
Cc1cc(-c2ccnc3[nH]cc(F)c23)cc(F)c1[C@@]1(O)[C@H](C)CN(C2CCS(=O)(=O)CC2)C[C@@H]1C,AURKB,"ATP/ADP probe binding, KiNativ",HEK293T lysate,"0.1 µM, Lys1 peptide",,probe labelling inhibition,-14.5%
C=CC(=O)N1CCC(C(=O)NCC(=O)N2CCN(c3nc(-c4cnc(N)nc4C(F)F)nc(N4CCOCC4)n3)CC2)CC1,PIKFYVE,KINOMEscan,,1 µM,,remaining binding,74%
CCCCC[C@H](O)/C=C/[C@H]1[C@H](O)CC(=O)[C@@H]1C/C=C\CCCC(=O)O,"PTGER1 (Homo sapiens, UniProt P34995, G87A)","IP1 accumulation, agonist",AD293,"1 h, EP1 G87A mutant",,Emax,92 ± 7.68%
Cc1ccc(OC[C@H]2CN(CCN3CCc4ccccc43)CCO2)cn1,"HTR2C (Homo sapiens, UniProt P28335)",radioligand binding,,"concentration not given, with: [3H]mesulergine",,inhibition,1.6%
Nc1ccc(C(=O)O)cc1,"BEST1, with wild-type BEST1 (Homo sapiens, UniProt O76090, A10T)",whole-cell patch clamp,HEK293 co-expressing WT and A10T mutant,"concentration not given, membrane potential -80 mV",,current density,-25.2 pA/pF and -17.3 pA/pF and -11.6 pA/pF and -41.2 pA/pF and -7.47 pA/pF and -22.9 pA/pF
N=C(N)Nc1nc2ccccc2[nH]1,"HVCN1 (Homo sapiens, UniProt Q96D96, F150A/F182W)","proton current, inhibitor, inside-out patch clamp",,,,Hill coefficient,0.91 ± 0.03
CC1CCCN(C(=O)c2cc3ncccn3n2)C1 (stereo not shown),"Baculoviral IAP repeat-containing protein 3, BIR1 domain (BIRC3, Homo sapiens, UniProt Q13489)","binding, affinity selection mass spectrometry",,,baseline: other proteins in batch,fold enrichment,1.36
NC(=O)C1=CN([C@@H]2O[C@H](COP(=O)(O)OP(=O)(O)OC[C@H]3O[C@@H](n4cnc5c(N)ncnc54)[C@H](O)[C@@H]3O)[C@@H](O)[C@H]2O)C=CC1,"FSP1, ancestral","oxidase activity, substrate, measured: superoxide, nitroblue tetrazolium",,with: atmospheric O2,,kcat,0.51 ± 0.04 s⁻¹
CN(C(=O)n1cnc(-c2ccc[n+]([O-])c2)c1)C1CCCCC1,"CCKAR (Homo sapiens, UniProt P32238)",,,10 µM,,inhibition,8.04%
C[C@H](O)c1ccc(NS(=O)(=O)c2ccc(OCC3CCC3)c(Cl)c2)c2nn(C)cc12,"17-beta-hydroxysteroid dehydrogenase 13 (Homo sapiens, UniProt Q7Z5P4)","substrate, NADH fluorescence",,,,Vmax,0.02 nM NADH/s/nM enzyme
CN(C)C(=O)CCSC(SCCC(=O)O)c1cccc(/C=C/c2ccc3ccc(Cl)cc3n2)c1 (stereo not shown),"UGT1A1 (Homo sapiens, UniProt P22309)","glucuronidation, inhibitor",cell lysate,"2.5 µM, with: genistein",,genistein glucuronide formation,decreased
N#Cc1ccc2[nH]cc(CCCCN3CCN(c4ccc5oc(C(N)=O)cc5c4)CC3)c2c1,"SLC6A4 (Homo sapiens, UniProt P31645, Y495A)","[3H]5-HT uptake, inhibitor",COS-7,,,Hill coefficient,1.55 ± 0.39
CCCC[C@H](NC(C)=O)C(=O)N[C@@H](CO)C(=O)N[C@H](C(=O)N1CCC[C@H]1C(=O)N[C@@H](C)C(=O)N[C@@H](CCCNC(=N)N)C(=O)N[C@@H](CCCNC(=N)N)C(=O)N[C@@H](CCCNC(=N)N)C(=O)N[C@@H](CC(C)C)C(=O)N[C@@H](CCCC)C(=O)N[C@@H](CCCNC(=N)N)C(=O)N[C@@H](CC(=O)O)C(=O)N[C@@H](Cc1ccccc1)C(=O)N[C@@H](CCCCN)C(=O)N[C@@H](CCCNC(=N)N)C(=O)N[C@@H](CC(C)C)C(=O)N[C@@H](CCC(N)=O)C(N)=O)[C@@H](C)O,"UBA1 (Homo sapiens, UniProt P22314)",HDX-MS,,"10 s, peptide alone without UBE1",baseline: undeuterated peptide,relative deuterium uptake,14.3 Da and 14.2 Da
N[C@@H](CCC(=O)O)C(=O)O,"uncharacterized protein (Ixodes scapularis, UniProt A0A0N9E2I2)",two-electrode voltage clamp,Xenopus oocytes,extracellular Cl- 37.6 mM,,reversal potential,4.1 ± 1.9 mV
[O-][S+]1CCCCS1 (stereo not shown),"SOD1 (Homo sapiens, UniProt P00441, G94A)",intact protein LC-MS,"SOD1 G93A transgenic mice, whole blood","oral, 150 mg/kg, 72 h, mean of two mice",,target engagement,17.2 % cross-linked dimer
Nc1ccc2cc3ccc(N)cc3nc2c1,"Chymotrypsinogen A, activated (alpha-chymotrypsin) (Bos taurus, UniProt P00766)",isothermal titration calorimetry,,"concentration not given, 25 °C, with: 0.5 M betaine",,entropic contribution TΔS° of binding,-72.2 ± 4.1 kJ/mol
O=C(O)C1CCCNC1 (stereo not shown),SLC6A6 Y138A,"binding, microscale thermophoresis",,"35.1 nM, fitted curve",higher = more binding,fraction bound,0.00174
CC[C@@H]1[C@H](F)C(=O)N[C@@H]1COc1nccc2cc(C(N)=O)c(OC)cc12,PIKFYVE,"ATP probe binding, KiNativ profiling, measured: ATP loop probe site",THP-1 cell lysate,0.2 mM,,inhibition,-0.0616%
CC1(C)CC2(C)OC(=O)NC2(C)c2ccccc21 (stereo not shown),"RFWD3 (Homo sapiens, UniProt Q6PCD5)","binding, affinity selection mass spectrometry",,,baseline: other proteins in batch,fold enrichment,1.17
O=C(COP(=O)(O)O)[C@@H](O)[C@H](O)[C@H](O)COP(=O)(O)O,"Peroxisomal bifunctional enzyme (EHHADH, Homo sapiens, UniProt Q08426)","thermal proteome profiling, measured: EHHADH",HepG2 cell lysate,"concentration not given, 57 over 37 °C",baseline: compound over control,thermal stability ratio,0.5 and 0.7 and 0.571
CO[C@H]1O[C@H](COS(=O)(=O)O)[C@@H](O[C@@H]2O[C@@H](C(=O)O)[C@@H](O[C@H]3O[C@H](COS(=O)(=O)O)[C@@H](O[C@@H]4O[C@H](C(=O)O)[C@@H](O[C@H]5O[C@H](COS(=O)(=O)O)[C@@H](O)[C@H](O)[C@H]5NS(=O)(=O)O)[C@H](O)[C@H]4O)[C@H](OS(=O)(=O)O)[C@H]3NS(=O)(=O)O)[C@H](O)[C@H]2OS(=O)(=O)O)[C@H](O)[C@H]1NS(=O)(=O)O,"Beta-2-glycoprotein 1, domain V (APOH, Homo sapiens, UniProt P02749, V266L)",isothermal titration calorimetry,,with: 100 mM NaCl,baseline: total free energy,salt-independent binding energy share,58%
CC[C@@H](C)[C@@H](NC(=O)[C@@H](Cc1ccc(O)cc1)NC(=O)[C@H]1CCCN1C(=O)[C@@H](CCCNC(=N)N)NC(=O)[C@H](N)Cc1c[nH]cn1)C(=O)N[C@H](C)C(=O)N[C@H](Cc1c[nH]cn1)C(=O)N[C@H](CCCNC(=N)N)C(=O)N[C@@H](C(=O)N[C@H](Cc1ccc(O)cc1)C(=O)N[C@H](CO)C(=O)N[C@H](Cc1ccccc1)C(N)=O)C(C)C,"Transferrin receptor protein 1 (Tfrc, Mus musculus, UniProt Q62351)",flow cytometry,B16,"24 h, unit not given",baseline: 0 h,surface expression,0.53 and 0.55
Cc1cccc(N2CC(C(=O)O)CC2=O)c1 (stereo not shown),Histone acetyltransferase type B catalytic subunit,"binding, affinity selection mass spectrometry",,,baseline: other proteins in batch,fold enrichment,1.1
O=C(CN1CCO[C@@H](COc2ccccn2)C1)N1CCc2ccccc21,HTR2A,radioligand binding,,"concentration not given, with: [3H]ketanserin",,inhibition,18.8%
NCCS(=O)(=O)O,SLC6A6 Y138A,"binding, microscale thermophoresis",,"62.5 µM, room temperature, with: 50 nM labelled protein",higher = more binding,normalised MST signal,0.0115
c1ccc(-c2n[nH]cc2-c2ccnc3ccccc23)nc1,"Protein kinase C-like 1 (Candida albicans, UniProt P43057)","kinase binding, competitor, MIB/MS competition, measured: PKC1",Candida albicans cell lysate,10 µM,baseline: DMSO,log2 fold change,1.45
Nc1nc2c(ncn2[C@@H]2O[C@H](COP(=O)(O)O)[C@@H](O)[C@H]2O)c(=O)[nH]1,"GUK1 (Homo sapiens, UniProt Q16774)","enzyme activity, NADH-coupled",,"2000 µM, with: NaCl 50 mM",,reaction velocity,0.089 µM/s and 0.115 µM/s and 0.0827 µM/s
CCCCc1oc2ccc(NS(C)(=O)=O)cc2c1C(=O)c1ccc(OCCCN(CCCC)CCCC)cc1,Nedd8-cullin1 interaction,"neddylation, AlphaScreen",,100 µM,,inhibition,-38.7%
O=[N+]([O-])c1ccc(O[C@@H]2O[C@H](CO)[C@@H](O)[C@H](O)[C@H]2O)cc1,β-glucosidase (Thermomyces),"Lineweaver-Burk plot, measured: p-nitrophenol",,optimal pH and temperature,,Km,28.6 mg/mL
NC/C(=C\F)COc1cccc(Cn2c(=S)[nH]c(=O)c3[nH]cnc32)c1,"Myeloperoxidase (MPO, Homo sapiens, UniProt P05164)","inhibitor, cholesteryl ester hydroperoxide",,0.0021 µM,baseline: control,LDL lipid peroxidation,93.8% and 106% and 84.5% and 79.2%
COc1cccc(OC[C@@H]2CN(CCN3CCc4ccccc43)CCO2)c1,HTR2A,radioligand binding,,"concentration not given, with: [3H]ketanserin",,inhibition,78%
CN(C)Cc1ccc(-c2nc3cccc4c3n2CCNC4=O)cc1,"TDP1 (Homo sapiens, UniProt Q9NUW8)","binding, small molecule microarray",,with: AF647-labelled TDP1 1 µM,direction not given,Z score,3.54
CCCCC[S+]([O-])c1n[nH]c(N)n1 (stereo not shown),Histone acetyltransferase type B catalytic subunit,"binding, affinity selection mass spectrometry",,,baseline: other proteins in batch,fold enrichment,0.874
Cc1ncsc1-c1ccc([C@H](C)NC(=O)[C@@H]2C[C@@H](O)CN2C(=O)[C@@H](NC(=O)CCCCCCCCC(=O)N(CCO)CCCOc2ccc3c(Nc4cc(CC(=O)Nc5cccc(F)c5)[nH]n4)ncnc3c2)C(C)(C)C)cc1,AURKB,"protein degradation, degrader, Western blot",HPAF-II,24 h,,Dmax,89 ± 0.4%
O=c1nc(SCc2cc(F)cc(C(F)(F)F)c2)nc(SCc2csc3ccc(Cl)cc23)[nH]1,TOP2A,DNA relaxation,,1.95 µM,,mean relaxed DNA,93.8%
C[C@@H](O)CNC(C)(C)CC(=O)N[C@@H]1CCc2ccccc2N(Cc2ccc(-c3ccccc3-c3nn[nH]n3)cc2)C1=O,"GHSR (Homo sapiens, UniProt Q92847)","Gαq dissociation, TRUPATH BRET",HEK293T,shared parameter fit,,Hill slope,0.66
O=c1nc(SCc2cc(F)cc(C(F)(F)F)c2)nc(SCc2ccc3sccc3c2)[nH]1,TOP2A,DNA cleavage,,"125 µM, with: etoposide 50 µM",,linear DNA,21.8%
CC(COc1ccccc1)N(CCCl)Cc1ccccc1 (stereo not shown),Nedd8-cullin1 interaction,"neddylation, AlphaScreen",,100 µM,,inhibition,-108%
CC(O)(CC(=O)O)C(=O)O (stereo not shown),"Uncharacterized protein (Pelagibacter ubique, UniProt Q4FKX4)",differential scanning fluorimetry,Candidatus Pelagibacter ubique,in-house screen,,thermal shift,2.7 °C
